Assay results of several laboratories.
Every numbered part comes from another study and shows a few of its results, in no order. Positions count from the first letter of the parent shown.

Set 1 — target: CCNF, cyclin fold, Cln2 fusion (human); method: yeast growth competition, sequencing; sample: yeast; setting: strong parent motif; relative to: not given; direction: higher = stronger binding
Starting sequence: E2F3 docking peptide (human); PPAKRRLELGESG
`R5K L9F`: “normalised enrichment score” 7.48.
`R5K` — result for “normalised enrichment score”: 3.67.
`R5A`: “normalised enrichment score” 0.65.
For `R6A`, “normalised enrichment score” read 3.41.
For `P2A`, “normalised enrichment score” read 7.01.
For `G10A`, “normalised enrichment score” read 6.79.
`R5A L7A`: “normalised enrichment score” 0.172.
`P1A`: “normalised enrichment score” 6.6.
`G13A` — result for “normalised enrichment score”: 6.58.

Set 2 — method: RNA Bind-n-Seq; form: RNA; sample: in vitro; tested at: 365 nM; relative to: no-protein control; direction: higher = stronger binding
Target: RNA binding protein fox-1 homolog 2, RRM domain, GST-SBP tag (RBFOX2, Homo sapiens, UniProt O43251-10, residues 100-194)
Setting: natural RNA segment, single round, ends assumed
Residues (chain): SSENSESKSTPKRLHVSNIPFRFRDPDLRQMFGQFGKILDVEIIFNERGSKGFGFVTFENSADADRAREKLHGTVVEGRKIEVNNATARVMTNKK
Under “RBNS enrichment (R)”, `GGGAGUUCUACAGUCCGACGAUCCCCUUGUCUACCCUGCUUUAAGAGGGUGAAUGACGGAAUAGACUUUAUGGUGUCAGUGAGUAGUUUGUAUUAGAAUAAUUUUCCUAUUUCCUACCUUGCUUUCUAGAAAGUGGAAUUCUCGGGUGCCAA` is recorded as 0.363.
`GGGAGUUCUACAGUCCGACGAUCACAUGAAAACCAGCAGAAAGGCCCUGAGCUGCUGCAUAGCCCCAUCUGAUUUCUGCAGUUCCCGCCAGCCUCCAACACGGGGACUCUGCCGUAACUGGAAUCUUCAUAGGUGGAAUUCUCGGGUGCCAA` — result for “RBNS enrichment (R)”: 0.322.
`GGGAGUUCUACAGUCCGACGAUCCUCAGGGCCACUUUGAGUGUGAUGAGAUACCCAGGAACACGUGUGCCCACAGCUGAAGUUUUACAUUACGUUUUCAAUUAAGUUGCCAACAUUUUAACAACUGGCACACAUGGAAUUCUCGGGUGCCAA` — result for “RBNS enrichment (R)”: 0.402.
`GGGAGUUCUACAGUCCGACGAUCCAUAUUGCAAUUAUGAUUUUAGAAGGAACUAAGCAUUUUACUCACACCCACAGCAGCAAGAAUGACCUCCUGCAGCAGAUAUUCCACCUGUAAUAGCACUUUGGAACUGUUGGAAUUCUCGGGUGCCAA` — result for “RBNS enrichment (R)”: 3.55.
For `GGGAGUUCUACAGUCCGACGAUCCAGAGCUCUGACCUCAUCAAACACCAGCGCACGCAUACAGGCGAGCGGCCCUACAAGUGUCCCAGGUGCGGCAAGGCCUUCGCUGAUAGCUCUUACCUACUCCGCCACCAUGGAAUUCUCGGGUGCCAA`, “RBNS enrichment (R)” read 0.748.
`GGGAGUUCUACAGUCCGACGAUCGUCCCCUUUUCAAUGAACCAUCAUGACUGUCCCAGUGUCGGAUGCAAGGGUGCCACGGGCUCUGAAGCUAACGGGCAUCCCACGCGGUCAGGUGUAGUAGUGAACUUGAAUGGAAUUCUCGGGUGCCAA` — result for “RBNS enrichment (R)”: 0.551.
For `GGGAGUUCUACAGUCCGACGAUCUUCCCACGGGAAGCUCUAGGACAGGAGGAAGGCGGGAAGCCCUGGGCAGGAACCACUCUGGCUGUCCAGGGGCUCCUGAAAUCUUCUGGUCAUCUACAAAGGGUAACAGGUGGAAUUCUCGGGUGCCAA`, “RBNS enrichment (R)” read 0.238.
Under “RBNS enrichment (R)”, `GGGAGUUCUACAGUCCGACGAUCCAACAUAGCCAUAGUCCUUUGAAGUAAGUGGCUAGAAACAGCACUCUGGUUAUAAUUGCCCCAGGGCCUGAUUCAGGACUGACUCUCCACCAUAAAACUGGAAGCUGCUUUGGAAUUCUCGGGUGCCAA` is recorded as 0.35.
For `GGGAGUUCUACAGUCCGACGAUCUAUACCAUUAUGUGCAUGUUAUUGGUAGCAGGCAUAGUUUAUUAUUUAGUACUGAAACAUGCUCUUUUACCUAACAGUAAACAAGUAUGUUUUGAUAUAUAUCUGUUAAUUGGAAUUCUCGGGUGCCAA`, “RBNS enrichment (R)” read 10.
Under “RBNS enrichment (R)”, `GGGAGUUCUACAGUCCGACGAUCAGGACUACAGCACACCUGGUUUCCUUUCUUUCUGCCACAGAUCCUUCACAGACGAGAGACUGUUGUCUUUGGAUUUUUCCCUCCGACUUUACUCUGUGAUUUCAGGUUCUUGGAAUUCUCGGGUGCCAA` is recorded as 0.37.
For `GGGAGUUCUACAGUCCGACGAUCCUGGUGACUAUGGGUUCCUCUUGUUUGUAGGGAACGGUGGCUCCAGGUGGAGGCAUCAAUCUGUUGGGUUCUGGUUCCCGGCUGCCUUUGGUUUUGAAAGUCUCUUCUCUUGGAAUUCUCGGGUGCCAA`, “RBNS enrichment (R)” read 0.569.
For `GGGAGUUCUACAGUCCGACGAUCGGGUCCUCAACCUGGGUCUGUGCCCCCAGCUGUGCCCAGCACCACGGGACCUCCACAGUCCAAUGGCAUUGCCUGUGUGUGCUGUCAUGAAGAUACCACGGCUGUUCUGGUGGAAUUCUCGGGUGCCAA`, “RBNS enrichment (R)” read 0.323.

Set 3 — method: protein binding microarray; form: double-stranded DNA, one strand shown; sample: in vitro; tested at: not given; relative to: not given; direction: higher = stronger binding
Target: Histone acetyltransferase KAT6A, winged helix 2, GST fusion (KAT6A, Homo sapiens, UniProt Q92794, residues 85-181)
Setting: 8-mer, flanks averaged, mean of 2 arrays, mostly near background
Residues (chain): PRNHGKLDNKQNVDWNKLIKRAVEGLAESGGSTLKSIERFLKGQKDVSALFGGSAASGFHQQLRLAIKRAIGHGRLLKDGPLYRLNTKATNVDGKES
`GGTATTAA` gave an E-score of 0.17.
For `AGCCTGGC`, the E-score was 0.0466.
The E-score of `AAGAGATT` is reported as -0.11.
With `ACTCCACC` the E-score was -0.00347.
For `CATTCGAA`, the E-score was 0.0107.
For `CGGGCCAA`, the E-score was -0.0203.
`AGCTATAA` has an E-score of -0.176.
For `AACATGTA`, the E-score was -0.0573.
For `CACCACCG`, the E-score was -0.0915.
The E-score of `ACGGTCCC` is reported as -0.0246.
For `CCGGTCGA`, the E-score was 0.0295.
The E-score of `ACAGAACC` is reported as -0.0368.
For `AGCTCGTG`, the E-score was 0.0442.
With `CCGACACA` the E-score was 0.0634.
With `CCTGGGTC` the E-score was 0.0638.
The E-score of `AATACGTG` is reported as -0.182.
With `CCGTGACG` the E-score was -0.0802.
`ATTTGACG` has an E-score of 0.0738.
With `CACTCTTA` the E-score was -0.0103.
`TAACAGAA` has an E-score of -0.108.
`ATAATGGA` has an E-score of -0.0924.
`ACCTCAAT` gave an E-score of -0.106.
`TTAGTCAA` gave an E-score of -0.0391.
For `CTTTCGCC`, the E-score was 0.0483.
`GCATTCGA` has an E-score of 0.00498.

Set 4 — method: RNA Bind-n-Seq; form: RNA; sample: in vitro; tested at: 200 nM; setting: whole 134-nt RNA, ends assumed; together with: 150 mM LiCl; relative to: input library; direction: higher = stronger binding; all molecules: 7-deaza-guanosine replaces G
Target: Fragile X messenger ribonucleoprotein 1, C-terminal low-complexity region (Fmr1, Mus musculus, UniProt P35922)
For `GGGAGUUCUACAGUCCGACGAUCUGGCCCUGGUGGCAUCCGGGGAGGAAGAGGUGGCCUCAUGGAUCGUGGUGGUCCCGGUGGAAUGUUCAGAGGUGGCCGUGGUGGAGACAGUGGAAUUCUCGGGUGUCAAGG`, the log2 enrichment was 0.599.
For `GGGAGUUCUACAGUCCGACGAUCGUCCUGUGCUACACAUCGUAUGUACCGAAUCGGAAAAAAGGGAAAAAAGGAAAAAAGGGAAAGUAUUAUGUUACGCCGUUCGGAUCUGCAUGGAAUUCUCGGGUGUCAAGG`, the log2 enrichment was -0.0386.
With `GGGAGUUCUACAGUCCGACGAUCCCUUUUUGAGAAGGCCGGACCCAUUUGGGAUCUACGUCUUAUGAUGGAUCCACUGUCCGGUCAGAAUAGAGGGUAUGCAUUUAUCACCUUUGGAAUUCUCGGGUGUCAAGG` the log2 enrichment was -0.0843.
With `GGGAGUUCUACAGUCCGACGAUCUCAAGUCCUGUGCUACACAUCGUAUGUACCGAAUCGGCCCGGGGCCCGGCCCGGGAAAGUAUUAUGUUACGCCGUUCGGAUCUGCACUUCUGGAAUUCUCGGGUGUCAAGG` the log2 enrichment was -0.687.
`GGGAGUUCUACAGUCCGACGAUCCUGUGCUACACAUCGUAUGUACCGAAUCGGGGAAAAAAAGGGGAAAAAAAGGAAAAAAAGGGAAAGUAUUAUGUUACGCCGUUCGGAUCUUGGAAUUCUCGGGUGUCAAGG` gave a log2 enrichment of 0.453.
With `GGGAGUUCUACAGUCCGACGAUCUCCUCAAGUCCUGUGCUACACAUCGUAUGUACCGAAUCGGGUGGGUGGUGGGAAAGUAUUAUGUUACGCCGUUCGGAUCUGCACUUCCAGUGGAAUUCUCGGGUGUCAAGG` the log2 enrichment was 0.878.
With `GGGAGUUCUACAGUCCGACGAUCGCAGAAAGUAAAAACAAAUGGAAAUGCUUCGGAUAGUGGCAGGGGUGGGGGUUGCUAAGGAAAGGGUGGGAUGGGAGUGGGUAAAGAGUUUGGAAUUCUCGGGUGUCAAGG` the log2 enrichment was 1.7.
The log2 enrichment of `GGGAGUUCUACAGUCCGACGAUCCACAGACAACACGCACCCACACAGACACAGAGGGAAGGGGUUGGGAUGGGGACAGGGUGCACAGCAGGGCGGGGUAGGACCCCAGGCCCUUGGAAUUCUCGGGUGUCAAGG` is reported as -0.978.
For `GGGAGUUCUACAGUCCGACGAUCUUGUUUAGCAAUCAAGGAGACCGCGAAGGCGUACAUUCCCGGGUGUUGCUUCCAGGAGAAACCCUGAACGGAGAGCUCGUCCUCUUACCAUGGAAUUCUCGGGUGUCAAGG`, the log2 enrichment was -0.227.
The log2 enrichment of `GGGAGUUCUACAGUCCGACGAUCUGGCCCUGGUGGCAUGCGGGGAGGAAGAGGUGGCCUCAUGGAUCGUGGUGGUCCCGGUGGAAUGUUCAGAGGUGGCCGUUGUGGAGACAGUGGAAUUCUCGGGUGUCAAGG` is reported as -0.841.
The log2 enrichment of `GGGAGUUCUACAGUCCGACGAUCACCAUGCAGGUGGGCAUCUUUGGGAAGUGGGGCAAGGGGGGGAUAGGGAGGGGGGUAACACUUUGGGCACAGGUGGUCCCAGGUCGUUUCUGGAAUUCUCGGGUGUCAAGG` is reported as 1.24.
